Measurements pooled from the literature.
Every numbered part comes from another study and shows a few of its results, in no order. Positions count from the first letter of the parent shown.

Study 1
Target: UBE2E1 UBC core domain (UniProt P51965)
Sequence of UniProt P51965 (whole entry, looked up): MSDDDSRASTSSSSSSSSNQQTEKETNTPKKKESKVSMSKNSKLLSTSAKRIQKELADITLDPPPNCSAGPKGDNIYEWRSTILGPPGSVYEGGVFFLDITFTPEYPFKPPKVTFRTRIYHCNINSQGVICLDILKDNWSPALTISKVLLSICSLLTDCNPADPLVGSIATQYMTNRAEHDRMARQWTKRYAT
Method: yeast two-hybrid
Matrix: yeast
Notes: mostly zero background
Reference: not given
Reading: higher = stronger interaction
B1: RNF122 RING domain (UniProt Q9H9V4); chain AKKLQLYGQTCAVCLEDFKGKDELGVLPCQHAFHRKCLVKWLEVRCVCPMCNKPIASPSEAT
B2: TRIM22 RING domain (UniProt Q8IYM9); chain VKVDIEKEVTCPICLELLTEPLSLDCGHSFCQACITAKIKESVIISRGESSCPVCQTRFQPGNLRP
B3: RNF183 RING domain (UniProt Q96D59); chain EQQGRELEAECPVCWNPFNNTFHTPKMLDCCHSFCVECLAHLSLVTPARRRLLCPLCRQPTVLASGQP
B4: DEF8 RING domain (UniProt Q6ZN54); chain AGRLGCSLTEIHTLFAKHIKLDCERCQAKGFVCELCREGDVLFPFDSHTSVCADCSAVFHRDCYYDNSTTCPKCARLSLRK
B5: MYCBP2 RING domain (UniProt O75592); chain TSLKQDADDMCMICFTEALSAAPAIQLDCSHIFHLQCCRRVLENRWLGPRITFGFISCPICKNKINHIVLKD
Molecule | lacZ reporter activity
B1 (RNF122 RING domain) | 0
YPEEVDDDLICHICLQALLDPLDTPCGHTYCTLCLTNFLVEKDFCPMDRKPLVLQHCKK (LNX1 RING domain (UniProt Q8TBB1)) | 0
B2 (TRIM22 RING domain) | 0
B3 (RNF183 RING domain) | 0
B4 (DEF8 RING domain) | 0
PEELAVNNDDCAICWDSMQAARKLPCGHLFHNSCLRSWLEQDTSCPTCRMSLNIADNNR (AMFR RING domain (UniProt Q9UKV5)) | 0
LGTKLEAKYLCSACRNVLRRPFQAQCGHRYCSFCLASILSSGPQNCAACVHEGIYEEGIS (TRAF2 RING domain (UniProt Q12933)) | 0
YCEMGSTFQLCKICAENDKDVKIEPCGHLMCTSCLTAWQESDGQGCPFCRCEIKGTEPII (CBLB RING domain (UniProt Q13191)) | 0
B5 (MYCBP2 RING domain) | 0

Study 2
Target: CCND3, cyclin fold, Cln2 fusion (human)
Method: yeast growth competition, sequencing
Matrix: yeast
Notes: weak parent motif
Reference: not given
Reading: higher = stronger binding
Starting sequence: WEE1 docking peptide (human); HKTFRKLRLFDTP
Substitution | normalised enrichment score
R5T | 0.176
P13T | 0.279
F4G | 0.134
K6H | 0.0472
L9T | 0.0727
R5F | 0.0358
P13M | 0.308
K2H | 0.0988
R8C | 0.201
F4L | 0.0186
F10A | 0.0971
F10N | 0.0277
K6C | 0.127
R8D | 0.108

Study 3
Target: ABI1, truncated, D143A, DHFR fusion (Arabidopsis thaliana)
Method: DHFR PCA, deep sequencing
Matrix: yeast
Notes: methotrexate growth selection, single substitutions
Together with: (+)-ABA 0 µM
Reference: wild-type fitted maximum
Reading: higher = stronger binding
Starting sequence: PYL1, truncated, DHFR fusion (Arabidopsis thaliana); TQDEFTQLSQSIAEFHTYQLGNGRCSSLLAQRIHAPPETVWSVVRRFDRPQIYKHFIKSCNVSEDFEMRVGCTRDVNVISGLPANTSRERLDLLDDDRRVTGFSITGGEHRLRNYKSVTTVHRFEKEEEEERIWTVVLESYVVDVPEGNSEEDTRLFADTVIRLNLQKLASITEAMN; partner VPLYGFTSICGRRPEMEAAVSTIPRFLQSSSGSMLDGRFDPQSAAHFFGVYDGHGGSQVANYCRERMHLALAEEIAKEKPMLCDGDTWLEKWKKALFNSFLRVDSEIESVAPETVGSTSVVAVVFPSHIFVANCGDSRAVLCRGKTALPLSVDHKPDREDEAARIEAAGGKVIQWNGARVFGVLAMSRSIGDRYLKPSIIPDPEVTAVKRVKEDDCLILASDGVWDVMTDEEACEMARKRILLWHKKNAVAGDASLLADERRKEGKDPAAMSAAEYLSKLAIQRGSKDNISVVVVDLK
Substitution | relative binding score [%]
R123A | 50.3
D48P | -1.46
H16V | -1.02
F15R | -0.364
L156Q | 7.11
R74K | 2.29
L82R | 7.59
V62G | -4.02
T73E | 23.6
T154W | -8.7
E4W | 19.9
T135R | -8.86
S27F | -0.74
H110C | 23.4
Y141T | -3.91

Study 4
Target: Ras GTPase-activating protein-binding protein 1, full length (G3BP1, Homo sapiens, UniProt Q13283)
Sequence of UniProt Q13283 (whole entry, looked up): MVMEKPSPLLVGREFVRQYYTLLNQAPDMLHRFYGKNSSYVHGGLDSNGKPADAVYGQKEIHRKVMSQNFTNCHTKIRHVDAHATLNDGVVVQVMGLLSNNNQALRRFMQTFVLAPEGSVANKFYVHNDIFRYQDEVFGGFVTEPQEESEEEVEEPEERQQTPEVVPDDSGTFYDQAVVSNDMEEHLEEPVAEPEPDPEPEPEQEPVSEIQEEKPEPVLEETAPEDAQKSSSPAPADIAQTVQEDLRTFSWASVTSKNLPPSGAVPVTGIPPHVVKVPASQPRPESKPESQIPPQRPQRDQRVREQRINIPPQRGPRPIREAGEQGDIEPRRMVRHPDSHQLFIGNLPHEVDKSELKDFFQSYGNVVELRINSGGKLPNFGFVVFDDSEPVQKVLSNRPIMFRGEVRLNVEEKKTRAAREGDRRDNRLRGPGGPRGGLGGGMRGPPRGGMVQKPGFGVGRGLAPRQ
Method: RNA Bind-n-Seq
Form: RNA
Matrix: in vitro
Tested at: 200 nM
Notes: whole 134-nt RNA, ends assumed
Together with: 150 mM LiCl
Reference: input library
Reading: higher = stronger binding
Each molecule: 7-deaza-guanosine replaces G
All sequences stand within: GGGAGUUCUACAGUCCGACGAUC … UGGAAUUCUCGGGUGUCAAGG
Oligonucleotide | log2 enrichment
UCAAGUCCUGUGCUACACAUCGUAUGUACCGAAUCGGAAAGGGAAAGGGAAAGGAAAGUAUUAUGUUACGCCGUUCGGAUCUGCACUUCC | -0.152
ACCGUGCAGGUGGGCAUCUUUGGGAAGUGGGGCAAGGGGGGGAUAGGGAGGGGGGUAACACUUUGGGAACAGGUGGUCCCAGGUCGUUUC | 0.317
AAGUCCUGUGCUACACAUCGUAUGUACCGAAUCGGCCCCGGGGCCCCGGGCCCCGGAAAGUAUUAUGUUACGCCGUUCGGAUCUGCACUU | -1.05
CUCAACGUUGACAGUAAUGAACAAGGCUCCUAUGUAGUGGCCAUGGAAACCUUUACCAACUUAGGACCCAUUGUCGAUAUGUGCGUGGUG | -1.65
CCCGAGCCGGAGAGGGAGCGCGAGCCGCGCCGGCCCCGGUCGGGCCUCCGAAACCAUGAACUUUCUGCUGUCUUGGGUGCAUUGGAGCCU | 0.643
AGUCCUGUGCUACACAUCGUAUGUACCGAAUCGGGUGGGAAAAAGGGUUUUUUUGGGAAAGUAUUAUGUUACGCCGUUCGGAUCUGCACU | -1.09
UAACUUUAGAGGAGGAUCUGAUGGAUAUGGCAGUGGACGUGGAUUUGGGGAUGGCUAUAAUGGGUACGGAGGAGGACCUGGAGGUGGCAA | -0.356
GCAGGAAGUAAAAACAAAUGGAAAUGCUUCGGAUAGUGGCAGGGGUGGGGGUUGCUAACGAAAGGGUGGGAUGGGAGUGGGUAAAGAGUU | -0.256
UCCUGUGCUACACAUCGUAUGUACCGAAUCGGGGUUUUUUGGGGUUUUUUGGUUUUUUGGAAAGUAUUAUGUUACGCCGUUCGGAUCUGC | 0.703
UCCUGUGCUACACAUCGUAUGUACCGAAUCAAAUUUUUUUAAACCCAAACCCCCCCAAAAAAGUAUUAUGUUACGCCGUUCGGAUCUGCA | 1.08
GUCCUGUGCUACACAUCGUAUGUACCGAAUCGGGGCCCCGGGCCCCGGGGCCCCGGGGAAAGUAUUAUGUUACGCCGUUCGGAUCUGCAC | -0.0667

Study 5
Target: HLF, bZIP domain (human)
Method: DHFR protein complementation
Matrix: yeast
Notes: single substitutions, most at no-binding floor
Reference: wild-type JUN-FOS pair
Reading: higher = stronger binding
Starting sequence: JUN, bZIP domain (human); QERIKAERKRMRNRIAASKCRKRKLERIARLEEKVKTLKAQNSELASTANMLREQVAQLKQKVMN; partner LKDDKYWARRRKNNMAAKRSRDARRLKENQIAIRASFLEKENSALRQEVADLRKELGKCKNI
Substitution | binding fitness [natural log]
T48D | -1.5
Q55E | -1.35
V35K | -1.44
L52E | -1.56
V56T | -1.52
S47Q | -1.41
K34V | -1.49
S43Y | -1.48
S43V | -1.31
V35F | -1.38
A40G | -1.47
A29L | -1.38
E32S | -1.42
K39I | -1.33
Q41M | -1.43

Study 6
Target: Histone acetyltransferase KAT6A, winged helix 1, GST fusion (KAT6A, Homo sapiens, UniProt Q92794, residues 1-85)
Method: protein binding microarray
Form: double-stranded DNA, one strand shown
Matrix: in vitro
Tested at: not given
Notes: 8-mer, flanks averaged, mean of 2 arrays, mostly near background
Reference: not given
Reading: higher = stronger binding
Target sequence (chain): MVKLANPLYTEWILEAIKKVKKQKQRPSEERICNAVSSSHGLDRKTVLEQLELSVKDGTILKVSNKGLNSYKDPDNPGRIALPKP
Oligonucleotide | E-score
AGTCATCG | -0.075
CCTTATAC | 0.029
CCCAAGCG | 0.112
TGCACAAA | -0.25
GATAGATC | -0.0304
CACTGCCC | -0.0394
ACAAGCCT | -0.15
CCTGGACC | -0.238
GGGACTCA | 0.0313
ATATACGG | 0.193
AATAATGG | 0.0109
CCTCCGCA | 0.0201
AAGGACAA | -0.153
ATACGATG | -0.177
AGACAGGG | -0.0959
ATGTCAGC | -0.0266
AGGACAAT | -0.197
AAATTAAC | -0.0741
GCCAGTCC | 0.135
CAGATCAC | 0.0166

For quick reference, copied from above (study 2):
Substitution | normalised enrichment score
L9T | 0.0727
K2H | 0.0988
R8D | 0.108
P13M | 0.308
P13T | 0.279
K6C | 0.127
F4L | 0.0186
K6H | 0.0472
F4G | 0.134
